Measurements gathered from unrelated publications.
Each numbered part is a random draw from the data of one study; scales do not carry over between parts. Substitutions count along the parent as printed.
Sequence of UniProt Q13557 (whole entry, looked up): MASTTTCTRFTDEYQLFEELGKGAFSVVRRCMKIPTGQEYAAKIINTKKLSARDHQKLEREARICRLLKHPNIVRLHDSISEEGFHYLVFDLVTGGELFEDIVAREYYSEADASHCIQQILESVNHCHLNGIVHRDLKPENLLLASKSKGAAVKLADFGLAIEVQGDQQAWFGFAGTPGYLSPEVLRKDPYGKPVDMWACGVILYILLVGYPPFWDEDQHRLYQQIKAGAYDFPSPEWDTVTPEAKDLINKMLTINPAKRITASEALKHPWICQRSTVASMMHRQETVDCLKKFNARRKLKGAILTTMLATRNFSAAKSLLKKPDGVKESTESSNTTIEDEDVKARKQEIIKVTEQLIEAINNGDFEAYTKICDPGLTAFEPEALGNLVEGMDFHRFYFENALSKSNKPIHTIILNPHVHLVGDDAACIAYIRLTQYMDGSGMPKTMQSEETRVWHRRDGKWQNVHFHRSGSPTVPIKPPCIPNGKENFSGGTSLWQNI
Sequence of UniProt Q00535 (whole entry, looked up): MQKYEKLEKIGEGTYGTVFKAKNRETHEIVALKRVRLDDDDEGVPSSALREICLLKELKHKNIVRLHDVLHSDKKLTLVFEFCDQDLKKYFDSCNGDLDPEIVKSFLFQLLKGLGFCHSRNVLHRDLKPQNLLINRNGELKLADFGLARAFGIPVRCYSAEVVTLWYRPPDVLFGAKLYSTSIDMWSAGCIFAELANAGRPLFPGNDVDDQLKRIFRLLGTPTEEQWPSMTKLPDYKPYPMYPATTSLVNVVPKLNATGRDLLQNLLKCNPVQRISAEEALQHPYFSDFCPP
Sequence of UniProt Q99759 (whole entry, looked up): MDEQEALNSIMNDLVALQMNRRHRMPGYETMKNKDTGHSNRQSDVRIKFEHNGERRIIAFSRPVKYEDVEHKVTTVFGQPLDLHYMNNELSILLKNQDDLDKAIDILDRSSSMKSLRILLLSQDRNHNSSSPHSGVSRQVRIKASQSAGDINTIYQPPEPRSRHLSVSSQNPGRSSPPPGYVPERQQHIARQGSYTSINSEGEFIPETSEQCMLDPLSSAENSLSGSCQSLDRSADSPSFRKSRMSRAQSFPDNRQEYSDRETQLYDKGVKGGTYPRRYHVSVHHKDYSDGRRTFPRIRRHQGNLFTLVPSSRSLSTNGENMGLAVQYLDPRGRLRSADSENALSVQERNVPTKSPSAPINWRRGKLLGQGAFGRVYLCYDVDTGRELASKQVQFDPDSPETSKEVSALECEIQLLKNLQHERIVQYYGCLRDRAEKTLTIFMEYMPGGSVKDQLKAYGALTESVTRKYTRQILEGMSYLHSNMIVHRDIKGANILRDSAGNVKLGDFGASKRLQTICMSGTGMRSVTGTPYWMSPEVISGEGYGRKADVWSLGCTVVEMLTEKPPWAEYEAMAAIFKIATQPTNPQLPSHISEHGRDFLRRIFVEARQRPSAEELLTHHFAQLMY
Sequence of UniProt O95747 (whole entry, looked up): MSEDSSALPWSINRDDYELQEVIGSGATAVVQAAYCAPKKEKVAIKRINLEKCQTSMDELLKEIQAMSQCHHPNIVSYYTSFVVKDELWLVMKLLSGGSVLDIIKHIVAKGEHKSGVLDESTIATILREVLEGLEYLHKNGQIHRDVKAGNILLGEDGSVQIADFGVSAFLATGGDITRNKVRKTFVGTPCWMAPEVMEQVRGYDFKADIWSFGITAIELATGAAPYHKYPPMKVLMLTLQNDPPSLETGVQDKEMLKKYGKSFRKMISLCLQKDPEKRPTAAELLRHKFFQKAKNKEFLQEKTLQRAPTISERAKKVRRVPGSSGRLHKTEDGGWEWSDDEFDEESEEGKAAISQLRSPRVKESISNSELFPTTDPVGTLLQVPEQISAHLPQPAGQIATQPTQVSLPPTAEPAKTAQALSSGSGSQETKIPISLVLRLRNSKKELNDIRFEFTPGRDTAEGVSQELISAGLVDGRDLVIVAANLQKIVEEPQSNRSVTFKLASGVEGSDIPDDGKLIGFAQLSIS
Sequence of UniProt P11802 (whole entry, looked up): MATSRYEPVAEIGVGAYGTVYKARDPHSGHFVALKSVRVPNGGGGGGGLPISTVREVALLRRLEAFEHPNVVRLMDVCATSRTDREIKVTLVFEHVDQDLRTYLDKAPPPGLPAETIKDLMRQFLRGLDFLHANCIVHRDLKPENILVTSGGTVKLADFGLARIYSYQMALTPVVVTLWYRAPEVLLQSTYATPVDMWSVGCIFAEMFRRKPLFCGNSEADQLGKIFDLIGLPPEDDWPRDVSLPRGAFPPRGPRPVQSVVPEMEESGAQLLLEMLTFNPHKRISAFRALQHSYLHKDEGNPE
Sequence of UniProt P51955 (whole entry, looked up): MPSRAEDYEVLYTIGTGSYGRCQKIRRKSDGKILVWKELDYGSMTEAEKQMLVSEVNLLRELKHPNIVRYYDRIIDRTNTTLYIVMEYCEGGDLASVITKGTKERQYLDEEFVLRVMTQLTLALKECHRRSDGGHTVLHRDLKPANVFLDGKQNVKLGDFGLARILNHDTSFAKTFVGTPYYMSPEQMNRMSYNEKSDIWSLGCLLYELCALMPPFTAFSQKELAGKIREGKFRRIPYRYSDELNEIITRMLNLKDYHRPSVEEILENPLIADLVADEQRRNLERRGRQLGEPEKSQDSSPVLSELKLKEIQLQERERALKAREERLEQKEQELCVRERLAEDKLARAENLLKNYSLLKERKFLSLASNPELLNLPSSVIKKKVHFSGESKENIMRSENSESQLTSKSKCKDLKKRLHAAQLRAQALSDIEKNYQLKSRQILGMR
Sequence of UniProt Q9UIK4 (whole entry, looked up): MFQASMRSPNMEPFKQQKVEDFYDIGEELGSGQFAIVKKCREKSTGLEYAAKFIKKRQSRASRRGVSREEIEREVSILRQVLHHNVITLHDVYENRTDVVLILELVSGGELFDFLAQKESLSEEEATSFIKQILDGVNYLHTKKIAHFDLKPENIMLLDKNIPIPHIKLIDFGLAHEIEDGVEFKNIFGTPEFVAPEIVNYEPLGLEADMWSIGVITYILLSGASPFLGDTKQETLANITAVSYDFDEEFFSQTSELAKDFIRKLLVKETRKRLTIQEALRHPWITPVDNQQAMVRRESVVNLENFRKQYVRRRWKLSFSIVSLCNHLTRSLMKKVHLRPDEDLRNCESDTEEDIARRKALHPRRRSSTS
Sequence of UniProt P37173 (whole entry, looked up): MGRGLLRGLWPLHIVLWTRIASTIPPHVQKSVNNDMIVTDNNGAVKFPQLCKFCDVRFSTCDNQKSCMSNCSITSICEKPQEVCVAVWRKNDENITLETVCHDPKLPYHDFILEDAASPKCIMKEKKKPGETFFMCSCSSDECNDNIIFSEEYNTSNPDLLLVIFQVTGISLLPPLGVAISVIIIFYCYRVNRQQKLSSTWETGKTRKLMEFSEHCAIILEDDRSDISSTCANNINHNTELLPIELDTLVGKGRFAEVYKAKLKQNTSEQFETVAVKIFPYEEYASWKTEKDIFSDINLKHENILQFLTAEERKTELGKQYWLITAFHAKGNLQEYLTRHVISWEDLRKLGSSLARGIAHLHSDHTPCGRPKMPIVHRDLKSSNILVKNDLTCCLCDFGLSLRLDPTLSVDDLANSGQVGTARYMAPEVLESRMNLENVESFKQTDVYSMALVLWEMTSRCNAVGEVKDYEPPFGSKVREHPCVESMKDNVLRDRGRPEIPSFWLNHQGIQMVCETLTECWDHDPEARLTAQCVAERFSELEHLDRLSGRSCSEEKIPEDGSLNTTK
Sequence of UniProt P35626 (whole entry, looked up): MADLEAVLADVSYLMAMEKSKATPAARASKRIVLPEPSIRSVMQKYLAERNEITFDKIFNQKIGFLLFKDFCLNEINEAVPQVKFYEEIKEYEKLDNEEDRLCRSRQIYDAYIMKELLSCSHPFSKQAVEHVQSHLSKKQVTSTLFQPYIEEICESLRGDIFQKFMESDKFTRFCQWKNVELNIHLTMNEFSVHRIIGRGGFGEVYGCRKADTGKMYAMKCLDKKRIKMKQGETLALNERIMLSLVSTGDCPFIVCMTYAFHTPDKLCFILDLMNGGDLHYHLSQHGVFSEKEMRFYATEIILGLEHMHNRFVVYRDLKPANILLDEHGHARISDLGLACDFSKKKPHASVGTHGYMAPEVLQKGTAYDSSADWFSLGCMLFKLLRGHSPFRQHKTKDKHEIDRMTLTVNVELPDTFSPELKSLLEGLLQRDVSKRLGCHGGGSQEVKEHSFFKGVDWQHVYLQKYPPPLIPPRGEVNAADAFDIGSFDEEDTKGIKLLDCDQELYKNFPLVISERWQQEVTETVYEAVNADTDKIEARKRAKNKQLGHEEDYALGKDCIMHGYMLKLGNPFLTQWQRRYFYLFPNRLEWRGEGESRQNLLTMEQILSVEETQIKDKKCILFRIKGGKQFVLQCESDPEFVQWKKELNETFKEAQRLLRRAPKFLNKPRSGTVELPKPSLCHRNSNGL
Sequence of UniProt Q15831 (whole entry, looked up): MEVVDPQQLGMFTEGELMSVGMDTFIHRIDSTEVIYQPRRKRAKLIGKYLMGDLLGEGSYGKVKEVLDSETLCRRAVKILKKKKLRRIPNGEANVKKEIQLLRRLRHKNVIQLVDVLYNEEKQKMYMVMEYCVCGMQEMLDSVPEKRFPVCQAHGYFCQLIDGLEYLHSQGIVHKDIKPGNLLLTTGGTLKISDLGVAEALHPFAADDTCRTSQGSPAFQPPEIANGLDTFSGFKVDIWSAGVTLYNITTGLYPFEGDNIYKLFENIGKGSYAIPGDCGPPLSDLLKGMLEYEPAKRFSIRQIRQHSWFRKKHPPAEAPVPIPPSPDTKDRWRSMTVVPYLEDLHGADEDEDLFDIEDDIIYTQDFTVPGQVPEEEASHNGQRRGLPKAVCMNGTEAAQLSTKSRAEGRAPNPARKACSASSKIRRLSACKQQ

Block 1
Target: Translocator protein (Tspo, Rattus norvegicus, UniProt P16257)
Sequence of UniProt P16257 (whole entry, looked up): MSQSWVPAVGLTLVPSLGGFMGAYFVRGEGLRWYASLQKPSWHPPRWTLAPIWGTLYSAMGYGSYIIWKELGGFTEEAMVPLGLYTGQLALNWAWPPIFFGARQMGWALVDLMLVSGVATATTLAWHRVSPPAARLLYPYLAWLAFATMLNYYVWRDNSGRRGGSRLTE
Read-out: radioligand binding
Method: radioligand displacement
Tested at: 10 µM
The inhibition of `C[C@@H]1CN(c2cc(-c3nn(C)c4ccc(OC5(C)CC5)cc34)ncn2)C[C@H](C)O1` is reported as 46.1%.
`FC(F)(F)c1ccc2c(c1)nc(-c1cccnc1)n2C1CC1` has an inhibition of -34.6%.
`Cc1nc(N2CC[C@@H](O)C2)ncc1-c1cc(C(F)(F)F)cc2[nH]ncc12` gave an inhibition of 1.57%.
With `O=c1nc(-c2ccccn2)sc2ccccc12` the inhibition was 9.91%.
With `CC(=O)N1CCC(c2ccc(C(=O)NC(=N)N)cc2C(F)(F)F)CC1` the inhibition was 6.39%.
`O=C(Nc1cnc(Oc2ccc(F)cc2)nc1)N1CCc2ncccc2[C@@H]1c1ccc(F)cc1` has an inhibition of 44.6%.
The inhibition of `CO[C@@H](C)c1c(Nc2ccc([C@H](N(C)C(=O)C3CCS(=O)(=O)CC3)C(F)(F)F)cc2)cnc2cc(Cl)nn12` is reported as 11.6%.
For `CN1CCN(C(=O)C(C)(C)c2ccc(C(=O)Nc3cn4cc(-c5ccncc5)ccc4n3)cc2)CC1`, the inhibition was -18.7%.
For `COCCc1ccc(-c2c(C)nc3c(N4CCOCC4)ccnn23)cn1`, the inhibition was 2.18%.
`Cn1cc(Cl)c2c(Oc3c(F)cc(Nc4cc(Cl)nc(N)n4)cc3F)ccnc21` has an inhibition of -10.3%.
`CCS(=O)(=O)c1cc2cc(C[C@@](O)(CC(C)(C)c3ccc(F)cc3C(N)=O)C(F)(F)F)[nH]c2cn1` gave an inhibition of -25.6%.
With `O=C(O)[C@H]1[C@H](Cn2nnc3ccccc3c2=O)CC[C@@H]1C(=O)c1ccc(OCCC2CCOCC2)cc1` the inhibition was 9.67%.
For `N#CN1CC[C@@H](C(=O)Nc2nc3c(s2)CN(C(=O)CN=[N+]=[N-])CC3)C1`, the inhibition was 5.64%.
With `COc1ccc2cc(OCC3(C(=O)O)CN(C(=O)c4ccc(F)cc4)C3)ccc2c1` the inhibition was -30.5%.
The inhibition of `Cc1c(NC(=O)c2cc(C(N)=O)nc3cc(F)ccc23)c(C(F)(F)F)nn1Cc1ccc(C(C)(C)C)cc1` is reported as -19.8%.
`O=C(N[C@H]1CCCCC/C=C\C2C[C@@]2(C(=O)O)NC(=O)[C@@H]2C[C@@H](Oc3ccncc3)CN2C1=O)OC1CCCC1` (stereo partly shown) gave an inhibition of -11.1%.
The inhibition of `CNC(=N)NCCC[C@H](NC(=O)[C@H](CC(C)C)NC(=O)NNC(=O)[C@H](Cc1ccccc1)NC(=O)[C@H](CO)NC(=O)[C@H](CC(N)=O)NC(=O)[C@@H](Cc1cccnc1)NC(=O)[C@H](N)Cc1ccc(O)cc1)C(=O)NCC(N)=O` is reported as 15.6%.
The inhibition of `COc1ccc2c(c1)O[C@H](c1ccc(OC)c(OC)c1)C[C@@H]2NC(=O)C1(c2ccc3c(c2)OC(F)(F)O3)CC1` (single isomer, unassigned) is reported as 66.6%.
With `Cn1nc(C(=O)NCc2ccc(C(=O)O)cc2)cc1-c1ccc2[nH]ccc2c1` the inhibition was 6.39%.
The inhibition of `c1ccc2oc(-c3csc(C4CCN(Cc5nc6ncccc6[nH]5)CC4)n3)cc2c1` is reported as 20.2%.
`C[C@H](NC(=O)c1cnc2n1[C@](C)(Cc1ccc(C#N)cc1)C(=O)N2c1cc(Cl)c(F)c(Cl)c1)C(=O)NC1(c2ccccn2)CC1` has an inhibition of 13.1%.
For `CC(=O)Nc1c(F)cc(C(=O)N[C@H]2CC[C@H](O)CC2)cc1O[C@@H](C)c1ccccc1`, the inhibition was 5.68%.
`N#Cc1ccc(Nc2ccc3[nH]c(=O)[nH]c3c2)c(Cl)c1` has an inhibition of 3.22%.
The inhibition of `c1ccc(N2CCN(Cc3nc4ccccc4[nH]3)CC2)nc1` is reported as 2.93%.
The inhibition of `O=C(NS(=O)(=O)c1ccc(NCC2CCOCC2)c([N+](=O)[O-])c1)c1ccc(N2CCN(Cc3ccc(C(F)(F)F)cc3-c3ccc(Cl)cc3)CC2)cc1Oc1cnc2[nH]ccc2c1` is reported as 11.6%.

Block 2
Target: Histone acetyltransferase KAT6A, winged helix 2, GST fusion (KAT6A, Homo sapiens, UniProt Q92794, residues 85-181)
Method: protein binding microarray
Form: double-stranded DNA, one strand shown
Sample: in vitro
Tested at: not given
Notes: 8-mer, flanks averaged, mean of 2 arrays, mostly near background
Reference: not given
Direction: higher = stronger binding
Target sequence (chain): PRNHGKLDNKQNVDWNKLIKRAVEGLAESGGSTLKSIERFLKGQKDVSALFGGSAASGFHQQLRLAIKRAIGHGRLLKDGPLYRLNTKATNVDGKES
With `ATTCGAGA` the E-score was -0.105.
The E-score of `CAACTTGA` is reported as 0.0507.
`CCTAAACA` has an E-score of -0.13.
`CGCGTGTC` gave an E-score of 0.241.
For `CAGGTGCG`, the E-score was 0.085.
`GTCGATGA` has an E-score of -0.0812.
`GTTGCGCA` has an E-score of -0.0436.
`AGACGCAC` gave an E-score of 0.0571.

Block 3
Variant: R45V
Target: ABI1, truncated, D143A, DHFR fusion (Arabidopsis thaliana)
Method: DHFR PCA, deep sequencing
Sample: yeast
Notes: methotrexate growth selection, single substitutions
Reference: wild-type fitted maximum
Direction: higher = stronger binding
Starting sequence: PYL1, truncated, DHFR fusion (Arabidopsis thaliana); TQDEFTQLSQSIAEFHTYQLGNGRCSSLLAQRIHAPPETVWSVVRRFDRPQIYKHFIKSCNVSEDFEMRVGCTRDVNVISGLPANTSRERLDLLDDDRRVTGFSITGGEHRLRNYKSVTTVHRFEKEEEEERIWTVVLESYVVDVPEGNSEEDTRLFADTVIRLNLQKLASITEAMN; partner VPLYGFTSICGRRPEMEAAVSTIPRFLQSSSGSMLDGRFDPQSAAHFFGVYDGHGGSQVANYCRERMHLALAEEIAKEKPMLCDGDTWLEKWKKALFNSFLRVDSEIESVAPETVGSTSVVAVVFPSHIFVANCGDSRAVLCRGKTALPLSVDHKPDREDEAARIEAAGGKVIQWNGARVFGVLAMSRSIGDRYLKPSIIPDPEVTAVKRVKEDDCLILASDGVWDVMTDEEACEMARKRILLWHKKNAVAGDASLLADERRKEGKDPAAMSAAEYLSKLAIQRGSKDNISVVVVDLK
It gave -5.13% for “relative binding score” (with: (+)-ABA 0.0091 µM).
with: (+)-ABA 1.4 µM — “relative binding score”: -18.9%.
The “relative binding score” was 1.33% (with: (+)-ABA 58 µM).
The “relative binding score” was -1.86% (with: (+)-ABA 4.8 µM).
For with: (+)-ABA 2500 µM: “relative binding score” read 56.6%.
The “relative binding score” was 15% (with: (+)-ABA 200 µM).

Block 4
SMILES: COc1ccc(COc2ccc(Cc3cnc(N)nc3N)cc2OC)cc1
Read-out: enzyme activity
Mode: inhibitor
Tested at: 0.5 µM
Reference: control
Tyrosine-protein kinase Lyn, isoform B (LYN, Homo sapiens, UniProt P07948) — remaining activity: 98.1%.
For GRK3 (Homo sapiens, UniProt P35626): remaining activity read 103%.
For STK11 (Homo sapiens, UniProt Q15831): remaining activity read 103%.
CHEK2 (Homo sapiens, UniProt O96017) — remaining activity: 107%.
For DAPK2 (Homo sapiens, UniProt Q9UIK4): remaining activity read 95.3%.
The remaining activity was 102% (Protein kinase C beta type, isoform beta-I (PRKCB, Homo sapiens, UniProt P05771)).
MAPK9 (Homo sapiens, UniProt P45984) — remaining activity: 106%.
For DAPK1 (Homo sapiens, UniProt P53355): remaining activity read 102%.
Cyclin-dependent kinase 4, with cyclin D1 (CDK4, Homo sapiens, UniProt P11802) — remaining activity: 97.4%.
It gave 103% for remaining activity (CAMKK2 (Homo sapiens, UniProt Q96RR4)).
The remaining activity was 127% (TGFBR2 (Homo sapiens, UniProt P37173)).
It gave 91.7% for remaining activity (cGMP-dependent protein kinase 1, isoform beta (PRKG1, Homo sapiens, UniProt Q13976)).
Cyclin-dependent kinase 5, with p25 (CDK5, Homo sapiens, UniProt Q00535) — remaining activity: 103%.
For PRKACA (Homo sapiens, UniProt P17612): remaining activity read 104%.
For STK10 (Homo sapiens, UniProt O94804): remaining activity read 100%.
For MAP3K3 (Homo sapiens, UniProt Q99759): remaining activity read 97.8%.
TGFBR1 (Homo sapiens, UniProt P36897) — remaining activity: 97%.
For OXSR1 (Homo sapiens, UniProt O95747): remaining activity read 103%.
It gave 99.9% for remaining activity (IKBKB (Homo sapiens, UniProt O14920)).
PRKCA (Homo sapiens, UniProt P17252) — remaining activity: 95.9%.
For CAMK2D (Homo sapiens, UniProt Q13557): remaining activity read 109%.
It gave 99.2% for remaining activity (NEK2 (Homo sapiens, UniProt P51955)).

For quick reference, copied from above (block 1):
`O=C(N[C@H]1CCCCC/C=C\C2C[C@@]2(C(=O)O)NC(=O)[C@@H]2C[C@@H](Oc3ccncc3)CN2C1=O)OC1CCCC1` (stereo partly shown) gave an inhibition of -11.1%.
For `COCCc1ccc(-c2c(C)nc3c(N4CCOCC4)ccnn23)cn1`, the inhibition was 2.18%.
`Cc1nc(N2CC[C@@H](O)C2)ncc1-c1cc(C(F)(F)F)cc2[nH]ncc12` gave an inhibition of 1.57%.
`O=C(Nc1cnc(Oc2ccc(F)cc2)nc1)N1CCc2ncccc2[C@@H]1c1ccc(F)cc1` has an inhibition of 44.6%.
The inhibition of `Cc1c(NC(=O)c2cc(C(N)=O)nc3cc(F)ccc23)c(C(F)(F)F)nn1Cc1ccc(C(C)(C)C)cc1` is reported as -19.8%.
